Published values pooled from the literature.
Parts stem from different laboratories: compare values within a part only.
UniProt P49761, sequence (whole entry, looked up): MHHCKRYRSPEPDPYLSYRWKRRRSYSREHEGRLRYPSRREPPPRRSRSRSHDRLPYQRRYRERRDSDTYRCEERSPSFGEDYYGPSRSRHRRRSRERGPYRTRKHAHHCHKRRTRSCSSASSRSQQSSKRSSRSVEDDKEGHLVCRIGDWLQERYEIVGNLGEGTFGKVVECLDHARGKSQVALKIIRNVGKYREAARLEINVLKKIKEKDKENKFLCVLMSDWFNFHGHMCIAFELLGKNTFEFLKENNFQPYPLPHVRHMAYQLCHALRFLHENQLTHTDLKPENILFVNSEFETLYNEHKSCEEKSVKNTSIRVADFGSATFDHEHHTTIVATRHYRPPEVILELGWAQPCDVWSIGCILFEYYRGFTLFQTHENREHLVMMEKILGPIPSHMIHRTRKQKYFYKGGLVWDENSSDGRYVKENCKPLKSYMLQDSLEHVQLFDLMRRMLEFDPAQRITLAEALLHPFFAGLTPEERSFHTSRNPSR
UniProt O75582, sequence (whole entry, looked up): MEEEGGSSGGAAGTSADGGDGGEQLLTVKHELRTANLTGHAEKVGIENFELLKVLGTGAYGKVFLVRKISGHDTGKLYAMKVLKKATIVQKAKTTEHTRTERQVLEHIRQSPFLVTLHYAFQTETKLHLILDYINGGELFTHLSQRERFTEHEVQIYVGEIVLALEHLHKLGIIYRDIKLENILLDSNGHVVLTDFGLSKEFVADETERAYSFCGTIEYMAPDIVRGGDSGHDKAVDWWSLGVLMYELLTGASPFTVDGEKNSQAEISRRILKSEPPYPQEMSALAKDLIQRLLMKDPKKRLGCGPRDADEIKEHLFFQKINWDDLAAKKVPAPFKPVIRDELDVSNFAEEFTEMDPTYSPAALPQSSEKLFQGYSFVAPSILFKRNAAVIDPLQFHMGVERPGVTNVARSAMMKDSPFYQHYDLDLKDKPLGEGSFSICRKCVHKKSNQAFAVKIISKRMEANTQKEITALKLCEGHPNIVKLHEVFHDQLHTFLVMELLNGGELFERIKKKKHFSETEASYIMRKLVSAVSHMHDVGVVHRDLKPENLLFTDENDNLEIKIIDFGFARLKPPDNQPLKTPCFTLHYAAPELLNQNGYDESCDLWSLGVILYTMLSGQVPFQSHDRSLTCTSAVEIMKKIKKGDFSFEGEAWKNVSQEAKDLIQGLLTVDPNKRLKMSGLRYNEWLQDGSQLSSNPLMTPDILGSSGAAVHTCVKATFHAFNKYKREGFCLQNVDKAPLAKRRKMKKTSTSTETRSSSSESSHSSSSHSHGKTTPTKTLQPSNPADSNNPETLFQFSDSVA
UniProt P51451, sequence (whole entry, looked up): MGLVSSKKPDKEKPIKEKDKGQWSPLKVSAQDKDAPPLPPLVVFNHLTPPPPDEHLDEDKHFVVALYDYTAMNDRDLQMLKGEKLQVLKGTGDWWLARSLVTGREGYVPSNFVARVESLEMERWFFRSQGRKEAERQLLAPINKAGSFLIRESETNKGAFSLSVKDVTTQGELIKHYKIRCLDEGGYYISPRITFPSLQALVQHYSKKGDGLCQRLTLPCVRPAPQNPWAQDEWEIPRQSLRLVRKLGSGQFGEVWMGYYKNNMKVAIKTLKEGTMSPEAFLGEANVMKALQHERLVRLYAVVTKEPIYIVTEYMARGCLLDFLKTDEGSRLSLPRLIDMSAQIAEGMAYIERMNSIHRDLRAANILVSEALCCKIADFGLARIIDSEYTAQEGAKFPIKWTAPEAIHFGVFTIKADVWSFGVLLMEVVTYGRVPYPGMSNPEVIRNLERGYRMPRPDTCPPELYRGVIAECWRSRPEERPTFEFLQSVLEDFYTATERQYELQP
UniProt P00519, sequence (whole entry, looked up): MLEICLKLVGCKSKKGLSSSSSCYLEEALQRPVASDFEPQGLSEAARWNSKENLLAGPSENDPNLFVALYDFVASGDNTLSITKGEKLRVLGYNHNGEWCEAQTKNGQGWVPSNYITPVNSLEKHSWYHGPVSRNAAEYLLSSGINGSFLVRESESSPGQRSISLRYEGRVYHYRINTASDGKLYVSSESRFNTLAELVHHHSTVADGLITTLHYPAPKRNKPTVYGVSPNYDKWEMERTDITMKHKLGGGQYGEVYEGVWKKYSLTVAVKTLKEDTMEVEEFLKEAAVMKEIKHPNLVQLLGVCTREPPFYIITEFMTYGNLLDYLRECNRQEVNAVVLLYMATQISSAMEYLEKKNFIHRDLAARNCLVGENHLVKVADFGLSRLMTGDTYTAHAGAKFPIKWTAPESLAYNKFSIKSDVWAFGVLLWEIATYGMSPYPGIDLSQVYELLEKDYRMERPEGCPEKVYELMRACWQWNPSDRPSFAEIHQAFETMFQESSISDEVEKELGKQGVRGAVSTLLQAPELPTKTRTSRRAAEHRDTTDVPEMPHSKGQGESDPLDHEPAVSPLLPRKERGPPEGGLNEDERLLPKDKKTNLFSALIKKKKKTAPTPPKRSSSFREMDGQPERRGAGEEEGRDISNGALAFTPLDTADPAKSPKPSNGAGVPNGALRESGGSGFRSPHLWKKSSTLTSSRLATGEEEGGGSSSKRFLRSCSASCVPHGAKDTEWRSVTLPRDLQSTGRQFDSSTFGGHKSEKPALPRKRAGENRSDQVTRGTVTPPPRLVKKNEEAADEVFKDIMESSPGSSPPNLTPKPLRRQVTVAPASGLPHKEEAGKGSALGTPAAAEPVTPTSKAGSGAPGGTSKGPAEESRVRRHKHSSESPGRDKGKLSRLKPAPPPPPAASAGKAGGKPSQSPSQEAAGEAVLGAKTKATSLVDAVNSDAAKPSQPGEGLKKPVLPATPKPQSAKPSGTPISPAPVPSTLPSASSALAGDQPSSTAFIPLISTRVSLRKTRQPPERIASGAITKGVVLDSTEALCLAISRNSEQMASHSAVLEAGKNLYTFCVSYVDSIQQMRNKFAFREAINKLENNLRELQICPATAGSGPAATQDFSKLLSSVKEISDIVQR
UniProt Q9H093, sequence (whole entry, looked up): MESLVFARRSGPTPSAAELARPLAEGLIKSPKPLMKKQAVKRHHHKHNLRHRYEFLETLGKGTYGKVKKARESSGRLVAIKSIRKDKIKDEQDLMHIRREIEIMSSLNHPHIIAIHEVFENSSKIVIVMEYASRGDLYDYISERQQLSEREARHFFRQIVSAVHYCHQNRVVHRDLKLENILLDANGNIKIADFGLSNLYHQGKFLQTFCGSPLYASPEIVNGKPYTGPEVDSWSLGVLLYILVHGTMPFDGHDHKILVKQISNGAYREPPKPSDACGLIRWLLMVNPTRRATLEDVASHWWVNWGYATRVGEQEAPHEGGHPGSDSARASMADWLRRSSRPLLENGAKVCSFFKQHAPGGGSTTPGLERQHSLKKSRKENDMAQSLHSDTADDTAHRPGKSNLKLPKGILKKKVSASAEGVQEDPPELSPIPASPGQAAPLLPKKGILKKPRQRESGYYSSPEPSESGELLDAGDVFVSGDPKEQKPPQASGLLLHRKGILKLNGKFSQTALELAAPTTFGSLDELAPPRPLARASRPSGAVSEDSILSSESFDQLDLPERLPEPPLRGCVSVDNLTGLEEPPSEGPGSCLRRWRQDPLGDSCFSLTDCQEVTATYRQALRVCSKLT

Series 1
SMILES: Oc1ccc(Nc2nc(-c3ccc(Cl)cc3)cs2)cc1
Effect on: enzyme activity
Mode: inhibitor
Tested at: 0.5 µM
Baseline: control
target | remaining activity
Cyclin-dependent kinase 6, with cyclin D3 (CDK6, Homo sapiens, UniProt Q00534) | 109%
TSSK2 (Homo sapiens, UniProt Q96PF2) | 102%
HIPK2 (Homo sapiens, UniProt Q9H2X6) | 90.9%
PHKG1 (Homo sapiens, UniProt Q16816) | 96.5%
ABL1 (Homo sapiens, UniProt P00519) | 99.7%
EPHA4 (Homo sapiens, UniProt P54764) | 104%
HIPK4 (Homo sapiens, UniProt Q8NE63) | 101%
SRMS (Homo sapiens, UniProt Q9H3Y6) | 106%
BLK (Homo sapiens, UniProt P51451) | 100%
PRKACG (Homo sapiens, UniProt P22612) | 112%
MAP4K4 (Homo sapiens, UniProt O95819) | 88.9%
STK16 (Homo sapiens, UniProt O75716) | 106%
DYRK3 (Homo sapiens, UniProt O43781) | 101%
RPS6KA5 (Homo sapiens, UniProt O75582) | 109%
EPHB1 (Homo sapiens, UniProt P54762) | 105%
Cyclin-dependent kinase 1, with cyclin B (CDK1, Homo sapiens, UniProt P06493) | 109%

Series 2
SMILES: Cc1noc([C@H]2C[C@@H](c3ccc(C(F)(F)F)cc3)CN(C(=O)N3CCS(=O)(=O)C3)C2)n1
Effect on: cell-free assay
Technique: competition with immobilised ligand
Tested at: 1 µM
target | remaining binding
Ribosomal protein S6 kinase alpha-1, C-terminal kinase domain (RPS6KA1, Homo sapiens, UniProt Q15418) | 100%
ULK3 (Homo sapiens, UniProt Q6PHR2) | 77%
CLK3 (Homo sapiens, UniProt P49761) | 100%
RET (Homo sapiens, UniProt P07949) | 100%
NUAK2 (Homo sapiens, UniProt Q9H093) | 100%

Series 3
Target: Centromere-binding protein 1, full length, N-terminal tag (CBF1, Saccharomyces cerevisiae, UniProt P17106, residues 1-351)
UniProt P17106, sequence (whole entry, looked up): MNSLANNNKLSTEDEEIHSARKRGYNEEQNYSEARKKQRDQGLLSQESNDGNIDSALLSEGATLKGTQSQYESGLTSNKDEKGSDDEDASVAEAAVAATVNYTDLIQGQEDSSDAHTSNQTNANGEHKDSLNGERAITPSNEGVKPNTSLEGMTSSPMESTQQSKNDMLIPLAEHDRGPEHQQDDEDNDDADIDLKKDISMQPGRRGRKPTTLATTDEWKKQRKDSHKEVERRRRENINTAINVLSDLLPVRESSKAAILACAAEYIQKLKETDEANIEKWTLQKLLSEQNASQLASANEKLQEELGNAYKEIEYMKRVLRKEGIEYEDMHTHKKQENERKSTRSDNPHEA
Technique: protein-binding microarray
Form: double-stranded DNA, one strand shown
Matrix: in vitro
Tested at: 0.8 µM
Setting: whole 60-bp probe, no competitor
Direction: higher = stronger binding
Sequence | fluorescence intensity [a.u.]
GAAGCAGAGTTGCCCCCCGTGGTACTGGAGAGATAGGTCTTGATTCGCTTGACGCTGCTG | 535
GAATTATACTACTATTTCATCAGATTTGTGCTTTAGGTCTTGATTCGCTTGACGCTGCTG | 505
CTAACTCTTTTCTTGCACCTGCAGCCTTAGGTCTTCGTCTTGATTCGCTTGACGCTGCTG | 561
GAACTATTCGGGACTGATGTCATATAGAAACATTAGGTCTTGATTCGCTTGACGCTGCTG | 572
CTATGAAGATAGTGCAACACGTCTGGTGATATCTTCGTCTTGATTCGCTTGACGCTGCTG | 590
GAATAGCAGCTTACATAGGTGGTGGCACTACCATAGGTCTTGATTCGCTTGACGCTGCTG | 485
GAAAATTTGTTGTTACACGAGGAGTATTAAAAATAGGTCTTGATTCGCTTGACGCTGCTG | 617
CTAGAAGCGTCTTGACACGTTTTCAAAAAAGGATTCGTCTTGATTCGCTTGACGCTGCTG | 661

Series 4
Target: Sal-like protein 4, full length isoform A (SALL4, Homo sapiens, UniProt Q9UJQ4, residues 1-1053)
UniProt Q9UJQ4, sequence (whole entry, looked up): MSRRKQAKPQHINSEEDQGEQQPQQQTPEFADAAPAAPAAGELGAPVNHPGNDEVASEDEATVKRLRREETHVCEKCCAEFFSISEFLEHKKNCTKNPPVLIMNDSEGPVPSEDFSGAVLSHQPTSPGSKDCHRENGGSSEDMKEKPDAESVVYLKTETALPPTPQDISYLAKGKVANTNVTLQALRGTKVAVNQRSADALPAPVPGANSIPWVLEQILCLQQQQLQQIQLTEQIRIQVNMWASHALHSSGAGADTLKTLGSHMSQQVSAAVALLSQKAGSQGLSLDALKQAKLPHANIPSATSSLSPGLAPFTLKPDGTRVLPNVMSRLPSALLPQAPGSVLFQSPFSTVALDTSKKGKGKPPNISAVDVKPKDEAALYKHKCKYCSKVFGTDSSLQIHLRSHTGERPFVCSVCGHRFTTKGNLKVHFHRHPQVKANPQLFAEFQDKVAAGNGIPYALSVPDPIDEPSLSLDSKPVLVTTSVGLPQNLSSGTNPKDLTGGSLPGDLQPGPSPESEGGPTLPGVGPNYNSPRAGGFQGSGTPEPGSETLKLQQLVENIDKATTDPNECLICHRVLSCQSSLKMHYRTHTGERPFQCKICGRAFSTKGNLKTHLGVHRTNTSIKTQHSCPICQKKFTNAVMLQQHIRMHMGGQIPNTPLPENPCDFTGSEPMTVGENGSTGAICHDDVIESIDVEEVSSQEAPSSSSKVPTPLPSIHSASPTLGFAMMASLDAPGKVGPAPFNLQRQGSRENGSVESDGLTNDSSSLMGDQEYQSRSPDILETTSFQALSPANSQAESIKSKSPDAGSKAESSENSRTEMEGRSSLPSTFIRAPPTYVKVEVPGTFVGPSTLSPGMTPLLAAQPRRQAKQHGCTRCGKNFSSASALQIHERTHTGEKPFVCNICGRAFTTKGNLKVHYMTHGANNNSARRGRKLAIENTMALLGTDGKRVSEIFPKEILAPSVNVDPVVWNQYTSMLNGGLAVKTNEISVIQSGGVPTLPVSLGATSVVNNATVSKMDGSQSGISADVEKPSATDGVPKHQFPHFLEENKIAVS
Technique: universal PBM
Form: double-stranded DNA, one strand shown
Matrix: in vitro
Tested at: 600 nM
Setting: 8-mer, flanks averaged, mean of replicates
Direction: higher = stronger binding
Sequence | E-score
GCTGATAC | 0.00887
AACACCAG | -0.108
CTGGTCCC | -0.329
TCCGTAAA | 0.0777
CTCGACCC | -0.247
CACATTCG | 0.124
GGGCCGAA | -0.312
GGTGCAAA | 0.00387
